Measurements pooled from the literature.
Each numbered part is a random draw from the data of one study; scales do not carry over between parts.

Set 1
Target: PABPC1L2, full length, GST fusion (mouse, UniProt A0ABA7IW68)
Technique: RNAcompete
Form: RNA
Medium: in vitro
Tested at: 20 nM
Notes: 7-mer, probes averaged, single round
Baseline: mean of 7-mers
Reading: higher = stronger binding
Construct (chain): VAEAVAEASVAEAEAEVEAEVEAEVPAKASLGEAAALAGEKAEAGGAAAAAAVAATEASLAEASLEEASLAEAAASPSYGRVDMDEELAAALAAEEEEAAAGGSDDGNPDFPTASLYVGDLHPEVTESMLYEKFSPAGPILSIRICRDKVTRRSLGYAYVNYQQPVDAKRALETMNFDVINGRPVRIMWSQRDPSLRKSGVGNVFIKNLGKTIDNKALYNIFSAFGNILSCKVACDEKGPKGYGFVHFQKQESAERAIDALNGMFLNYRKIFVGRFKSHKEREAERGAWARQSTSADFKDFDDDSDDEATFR
For `CCUCGCG`, the 7-mer Z-score was -0.44.
The 7-mer Z-score of `AGCUCUC` is reported as -0.306.
`GUCUUCA` has a 7-mer Z-score of -0.322.
`UAUGCCC` has a 7-mer Z-score of -0.329.
The 7-mer Z-score of `CGUACGU` is reported as -0.333.
The 7-mer Z-score of `AUCAACA` is reported as -0.0156.
`AGCGAAG` has a 7-mer Z-score of 0.106.
With `CCUAACA` the 7-mer Z-score was -0.193.
`GCGACAA` gave a 7-mer Z-score of 0.323.
With `CGGAGGC` the 7-mer Z-score was -0.0138.
For `CCGCACG`, the 7-mer Z-score was -0.315.
For `AGUCCUA`, the 7-mer Z-score was -0.356.
`GCGGACU` has a 7-mer Z-score of 0.0968.
`AAGGUAC` has a 7-mer Z-score of 0.2.
`UUUGGCC` has a 7-mer Z-score of -0.358.
`GGAUACG` gave a 7-mer Z-score of 0.00979.
`CGCGGAA` gave a 7-mer Z-score of -0.0047.
The 7-mer Z-score of `GAACUAG` is reported as -0.0518.

Set 2
Target: Transcriptional repressor CTCF (CTCF, Homo sapiens, UniProt P49711, residues 1-727, full length assumed)
Sequence of UniProt P49711 (whole entry, looked up): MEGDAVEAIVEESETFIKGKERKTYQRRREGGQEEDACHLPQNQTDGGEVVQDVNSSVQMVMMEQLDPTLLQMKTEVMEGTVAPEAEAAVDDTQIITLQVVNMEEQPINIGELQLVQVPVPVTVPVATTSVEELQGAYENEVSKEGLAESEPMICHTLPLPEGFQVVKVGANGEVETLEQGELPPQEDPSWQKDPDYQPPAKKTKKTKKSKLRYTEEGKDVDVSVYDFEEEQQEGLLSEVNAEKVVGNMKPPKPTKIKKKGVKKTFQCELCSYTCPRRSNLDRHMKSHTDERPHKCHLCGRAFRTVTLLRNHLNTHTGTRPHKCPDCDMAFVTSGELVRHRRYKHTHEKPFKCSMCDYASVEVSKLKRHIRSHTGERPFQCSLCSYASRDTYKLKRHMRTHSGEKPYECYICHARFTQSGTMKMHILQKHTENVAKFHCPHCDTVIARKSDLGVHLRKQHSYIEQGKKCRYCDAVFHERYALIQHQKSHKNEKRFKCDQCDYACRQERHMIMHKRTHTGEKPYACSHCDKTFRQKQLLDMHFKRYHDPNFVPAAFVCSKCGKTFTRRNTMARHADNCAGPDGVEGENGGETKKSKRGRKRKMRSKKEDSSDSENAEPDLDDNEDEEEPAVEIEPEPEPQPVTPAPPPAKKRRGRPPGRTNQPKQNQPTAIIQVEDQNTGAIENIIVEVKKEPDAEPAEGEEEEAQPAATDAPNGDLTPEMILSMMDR
Technique: protein-binding microarray
Form: double-stranded DNA, one strand shown
Medium: in vitro
Tested at: not given
Notes: k-mer, scored over probes, only values ≥0.25
Reading: higher = stronger binding
With `GCATAATA` the E-score was 0.333.
`ACAAATAG` gave an E-score of 0.254.
`CGCGCGTA` has an E-score of 0.295.
With `TAATGATA` the E-score was 0.276.
With `TATATATA` the E-score was 0.41.
`ATGTCACA` gave an E-score of 0.258.
The E-score of `GCGCGCGA` is reported as 0.307.
For `ACGTTATA`, the E-score was 0.393.
`TATGCATA` has an E-score of 0.327.
The E-score of `ATATTTGC` is reported as 0.293.
`GGGGGCGA` has an E-score of 0.316.
`ATTGCACA` has an E-score of 0.259.
The E-score of `ATTTATTA` is reported as 0.287.
For `ACAAATAA`, the E-score was 0.373.
For `ACACAATA`, the E-score was 0.26.
`ATTACGCA` gave an E-score of 0.274.
`AATACTCA` gave an E-score of 0.295.
`GCGCTATA` has an E-score of 0.386.
The E-score of `GTACAAAA` is reported as 0.296.

Set 3
Target: Histone acetyltransferase KAT6A, winged helix 1, GST fusion (KAT6A, Homo sapiens, UniProt Q92794, residues 1-85)
Technique: protein binding microarray
Form: double-stranded DNA, one strand shown
Medium: in vitro
Tested at: not given
Notes: 8-mer, flanks averaged, mean of 2 arrays, mostly near background
Baseline: not given
Reading: higher = stronger binding
Residues (chain): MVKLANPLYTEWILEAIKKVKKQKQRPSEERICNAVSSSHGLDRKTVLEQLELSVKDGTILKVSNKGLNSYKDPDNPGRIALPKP
With `CATTGACC` the E-score was 0.0609.
`CGGGTATA` has an E-score of 0.206.
With `CGTCAAAA` the E-score was -0.00302.
With `CTAATGTC` the E-score was 0.0106.
The E-score of `AGCCCGCT` is reported as 0.264.
The E-score of `AACCTCGG` is reported as -0.00889.
`CCGAGGGA` gave an E-score of -0.0301.
`ACTGACAC` has an E-score of -0.0352.
`GCCGGACA` has an E-score of 0.304.
With `CACAGCAC` the E-score was 0.0119.
For `CCGTGTAA`, the E-score was 0.11.
`ATAGCGGA` gave an E-score of 0.242.
For `ATTCACTG`, the E-score was -0.157.
`TCGCTACA` gave an E-score of -0.0171.
For `ACCATAAT`, the E-score was -0.0445.
The E-score of `CTGTATCC` is reported as -0.116.
For `CACCCCCA`, the E-score was -0.21.
With `ATTTCTTC` the E-score was -0.223.
With `AATTACAT` the E-score was -0.099.
`TCAAAAGA` gave an E-score of -0.0348.
`CATAAACA` gave an E-score of -0.00677.
For `TACGGGAA`, the E-score was 0.387.
The E-score of `ATAGGAGG` is reported as -0.111.
`AACCTGGA` gave an E-score of -0.249.
`AGATGTCA` has an E-score of -0.0538.

Set 4
Target: RNA binding protein fox-1 homolog 2, RRM domain, GST-SBP tag (RBFOX2, Homo sapiens, UniProt O43251-10, residues 100-194)
Technique: RNA Bind-n-Seq
Form: RNA
Medium: in vitro
Tested at: 365 nM
Notes: natural RNA segment, single round, ends assumed
Baseline: no-protein control
Reading: higher = stronger binding
All sequences stand within: GGGAGUUCUACAGUCCGACGAUC … UGGAAUUCUCGGGUGCCAA
Construct (chain): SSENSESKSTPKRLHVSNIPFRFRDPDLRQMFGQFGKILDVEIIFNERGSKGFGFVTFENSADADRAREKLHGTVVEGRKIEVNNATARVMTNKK
Under “RBNS enrichment (R)”, `AUAUAGCUACCUGUCUAGAUCUGCAUCUGUGUGCCUAUGUAUAUAUUAUACACACACAGAGGCACUCACCGCUGGCUCUCCUUUCCUUGGGGAUUGGGGUGGGGGUGAUA` is recorded as 0.258.
For `UCUGUGUUCUUUGUUACUUGGGUGCAAUAGCAACUUCCCUACCCCGUGCAUUCCAUCUUUCAUGUUGUGUAAAGUUCUUCACUUUUUUCUCUGAGGGCUGGGGGUUGGGG`, “RBNS enrichment (R)” read 0.394.
Under “RBNS enrichment (R)”, `ACUUCGCUGCUGCUGAGAGCAGGAGAAUUUUCUGCAGCUGUUUCAAAGUUGUGGCCUGGCCUUGAAUCCUCUAUUAAUUACUGUGUGAGCCAGAGGGAACUGCCCUGCAA` is recorded as 0.881.
For `AACCCAUGACCAUUUACUAAGUGAAUGAUGUAUAUUUCCCAUUAUCAGAAGUAUAAUGAAGUUGGAAUAAAUUCUUUAAAGUUUACUAUGUUGCCAGUGGUUUCACACAA`, “RBNS enrichment (R)” read 0.558.
Under “RBNS enrichment (R)”, `UGGCGUACAGUGGUACGAUCUCAGCUCACUGCAUCCUCUGCCUCCCCCAGUUCAAGUGAUUCUUCUGCCUCGGCCUCCUGAGUAACUGGGACUACAGGCGCCUACCACCA` is recorded as 1.29.
Under “RBNS enrichment (R)”, `AAAUGCAGCUCCUUUCUGUGCUGGGCUGGAAAGACUGGAGCGCUGCCCCGAGGAUCUACGGCCUUGGUUGGGAGUUGUGCUCCUUGCAGCAGGGAGUGAUGAAAUGGUGA` is recorded as 0.654.
`CUCAAGAAGACUGACCGGUACGGGACACUCGAGGCUUUGAAUGGGACACCCUAUUCUGCCUUUUUUGAUUUUUUUCCCCUGAAUUAUUCUUUUUUACAACCCUUGUCCUU` — result for “RBNS enrichment (R)”: 0.7.
For `AGUUGUGUGGAGGGAUGGAAAGUGGGUCAGUGGAGAAGGGAUUCAGAAAAUGACACAUUCUUCCCCAUUUCUAUAGUGUAUGUGGUUUAUUUUGAGUCAUGUCUCAUCUG`, “RBNS enrichment (R)” read 0.533.
`CCAUUGUUGAUGUGUUGUGGGACAUUUUUAUAUAUUGAACCUGGGUUCUUUUUUGAUCUGUUUUGGUCGUCCCUCCAUUCAACUGCAUCUUUUUUUUUUUUAAAAACAAA`: “RBNS enrichment (R)” 1.43.
`ACAUCUGUUACCUUGAAAAACAUUGAAGAAAGUACUGAAGUGUGCAUGGAGGUGGUUUAAGCAUAAUACUUAACCCAAGAAAGAGUGUAAGUGGACACAAGCUGUGCCUG` — result for “RBNS enrichment (R)”: 1.08.
`CUUGGCUUACUACAACCUCCGCCUCCUGGGUUCAAGCGAUCCUCCUGCCUCAGCCCCCCACUAGCUGGGACUACAGGCACAUGCCACCAUGCCCGGCUAAUUUUUUUGUA` — result for “RBNS enrichment (R)”: 0.589.
`GAGGGGCCUUCUCAGUGCAGUGUCCAUGUGCCUCUAGCUCCCGUUGGUGUGGAGGGUACUGCCUUGGCCUGUGGCGUUUGUCCUGUCUCAUCUCUCCCAGCAUCCAUAGG`: “RBNS enrichment (R)” 1.1.
